{"data": "Published values from different studies", "note": "Numbered parts are unrelated; each lists some results of a single study."}
{"data": "Sample 1", "target": "Histone acetyltransferase KAT6A, winged helix 2, GST fusion (KAT6A, Homo sapiens, UniProt Q92794, residues 85-181)", "method": "protein binding microarray", "molecule type": "double-stranded DNA, one strand shown", "matrix": "in vitro", "tested at": "not given", "setting": "8-mer, flanks averaged, mean of 2 arrays, mostly near background", "reference": "not given", "direction": "higher = stronger binding", "Residues (chain)": "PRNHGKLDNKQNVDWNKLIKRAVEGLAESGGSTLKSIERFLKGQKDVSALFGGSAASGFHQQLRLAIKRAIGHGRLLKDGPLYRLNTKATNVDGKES"}
{"Strand": "TAGTAGGA", "E-score": -0.0886}
{"Strand": "AGCCTTTA", "E-score": -0.164}
{"Strand": "ACATATGC", "E-score": -0.217}
{"Strand": "TAGTGCAA", "E-score": 0.163}
{"Strand": "CCAACGTA", "E-score": -0.159}
{"Strand": "GCGTGAGA", "E-score": 0.0533}
{"Strand": "AAGCGCGA", "E-score": 0.124}
{"Strand": "ATTCCCAA", "E-score": 0.037}
{"data": "Sample 2", "target": "Interferon regulatory factor 7, full length, phosphomimetic (IRF7, Homo sapiens, UniProt Q92985, residues 1-503, S101K/S471D/S472D/S475D/S476D/S477D/S483D/S484D/S487D)", "method": "protein-binding microarray", "molecule type": "double-stranded DNA, one strand shown", "matrix": "in vitro", "tested at": "250 nM", "setting": "60-bp whole probe", "together with": "salmon DNA 0.4 mg/ml", "reference": "random background probes", "direction": "higher = stronger binding", "shared flanks, not repeated": "GCCTAGCAC … GTCTTGATTCGCTTGACGCTGCTG", "Target sequence (chain)": "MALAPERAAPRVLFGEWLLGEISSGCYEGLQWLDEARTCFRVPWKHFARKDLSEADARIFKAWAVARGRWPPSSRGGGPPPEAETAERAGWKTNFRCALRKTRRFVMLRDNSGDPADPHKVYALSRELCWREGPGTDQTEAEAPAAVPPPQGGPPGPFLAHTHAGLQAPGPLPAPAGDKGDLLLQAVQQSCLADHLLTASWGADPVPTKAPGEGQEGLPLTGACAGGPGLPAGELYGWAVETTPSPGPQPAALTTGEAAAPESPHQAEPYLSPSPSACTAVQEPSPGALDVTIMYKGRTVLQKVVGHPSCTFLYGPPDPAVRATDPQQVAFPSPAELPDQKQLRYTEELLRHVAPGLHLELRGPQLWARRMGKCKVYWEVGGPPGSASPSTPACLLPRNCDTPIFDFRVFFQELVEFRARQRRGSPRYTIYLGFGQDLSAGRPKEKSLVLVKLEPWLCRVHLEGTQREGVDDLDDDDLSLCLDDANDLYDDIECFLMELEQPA"}
{"Strand": "TTTTTTTTATTTATAAATTAGTGCTAG", "log fluorescence [z-score]": 1.22}
{"Strand": "GACGATCTCAGTCTCTAGACGTGCTAG", "log fluorescence [z-score]": 0.00616}
{"Strand": "ACCCGAGACACCGCCCCTTTGTGCTAG", "log fluorescence [z-score]": -0.011}
{"Strand": "GACGAACTGGGGACTGCAGACGTGCTA", "log fluorescence [z-score]": -0.416}
{"Strand": "CAGCATCTGCAACATCTACAAGTGCTA", "log fluorescence [z-score]": -0.589}
{"data": "Sample 3", "target": "RNA binding protein fox-1 homolog 2, RRM domain, GST-SBP tag (RBFOX2, Homo sapiens, UniProt O43251-10, residues 100-194)", "method": "RNA Bind-n-Seq", "molecule type": "RNA", "matrix": "in vitro", "tested at": "365 nM", "setting": "natural RNA segment, single round, ends assumed", "reference": "no-protein control", "direction": "higher = stronger binding", "shared flanks, not repeated": "GGGAGUUCUACAGUCCGACGAUC … UGGAAUUCUCGGGUGCCAA", "Residues (chain)": "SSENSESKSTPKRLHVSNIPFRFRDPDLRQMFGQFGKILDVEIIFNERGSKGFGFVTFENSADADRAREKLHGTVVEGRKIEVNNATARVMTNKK"}
{"Strand": "CUACUUUAACAACUGUCAGAGAAACGUGAUGGGGGUAAGGAGGUACUUUUUAAAAUCGUUCAUAGACUUCUGUAAAAUGCAAGAUAAAUUAAAGUUAUUAUAACAGUAAU", "RBNS enrichment (R)": 1.53}
{"Strand": "UAUGGCUGGUCCUCCUUCUUGCUCACUGACCCCUCUCCAGGACACUGUCCCUGAAGCCUUCGCAUCUCAGCUCUUCACCCCUGGGAGGCAGCUGAUCGCCCUGCGUGCUG", "RBNS enrichment (R)": 1}
{"Strand": "GCAUGCAGAAACUUGGAUGUCACUGCCUGACAUUCACUUCCAGAGAGGACCUAUCCCAAAUGUGGAAUUGACUGCCUAUGCCAAGUCCCUGGAAAAGGAGCUUCAGUAUU", "RBNS enrichment (R)": 9.27}
{"Strand": "CCUGGGAAGACAUGAAUGUGCAGACCAUUGCAGAGCUUUUGAUUUCAUCUAGGUUCUGAAUUACAGAAACCAACCAACCAAAAUUCUACCUUCAUUCUACAUAGACAUCA", "RBNS enrichment (R)": 0.495}
{"Strand": "UCAGGGUGUGGUAGCAAAUGCCUAUAAUCCCAGCAUUUAGGAGGCAGGGAUAGGAAUCUCAGGUUCAAGGCUGCCUACAAGUGUCUCAAAAAAGAAAGAACAAAAGAAAG", "RBNS enrichment (R)": 0.653}
{"Strand": "CUGUUGGGAUCAUUUGUGAAUACAUUCUUUGCUCCUCUUAAGUGCUUGUUUCCUAACCGUGCAGUGGUAGGUAUUAGUACACUGGGCACUUCCCCAGGGAUCUGGGGAAG", "RBNS enrichment (R)": 0.315}
{"data": "Sample 4", "Substance": "PhoQ, residues 284 288 289 292 302 303 QWQEDG", "method": "Sort-seq", "item": "YFP reporter", "matrix": "E. coli", "setting": "PhoQ-PhoP variant library", "together with": "10 µM Mg2+", "reference": "high Mg2+ state", "direction": "higher = stronger signaling"}
{"target": "PhoP, residues 12 14 15 18 19 QYFSL (Escherichia coli, UniProt P23836)", "fold induction": 3.91}
{"target": "PhoP, residues 12 14 15 18 19 NYFRM (Escherichia coli, UniProt P23836)", "fold induction": 8.1}
{"target": "PhoP, residues 12 14 15 18 19 TQALL (Escherichia coli, UniProt P23836)", "fold induction": 5.65}
{"note": "For quick reference, copied from above (sample 4):"}
{"target": "PhoP, residues 12 14 15 18 19 QYFSL (Escherichia coli, UniProt P23836)", "fold induction": 3.91}
{"target": "PhoP, residues 12 14 15 18 19 TQALL (Escherichia coli, UniProt P23836)", "fold induction": 5.65}
